Results collected from several papers.
Each numbered part is a random draw from the data of one study; scales do not carry over between parts.

Series 1
Target: RNA binding protein fox-1 homolog 2, RRM domain, GST-SBP tag (RBFOX2, Homo sapiens, UniProt O43251-10, residues 100-194)
Technique: RNA Bind-n-Seq
Form: RNA
Sample: in vitro
Tested at: 365 nM
Setting: natural RNA segment, single round, ends assumed
Reference: no-protein control
Reading: higher = stronger binding
Constant ends, left off below: GGGAGUUCUACAGUCCGACGAUC … UGGAAUUCUCGGGUGCCAA
Target sequence (chain): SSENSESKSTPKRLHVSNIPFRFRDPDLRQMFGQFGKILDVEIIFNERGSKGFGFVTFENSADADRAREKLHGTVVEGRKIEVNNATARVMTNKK
`UUAGAAAGUCCAAGUGUUCAGGACUUUUAUACCUGUUAUACUUUGGCUUGGUUUCCAUGAUUCUUACUUUAUUAGCCUAGUUUAUCACCAAUAAUACUUGACGGAAGGCU` — result for “RBNS enrichment (R)”: 0.471.
Under “RBNS enrichment (R)”, `AUUCUUCUCUGCGCUUUACUGCUUUGCCUGAGGAAUCGAUUAUAUUUGACAGAGAAAUAUUGUUUAGACUGCAUUAUUUUUGUUCGACUCCAAAAGAUUUGCCAAAUAAC` is recorded as 0.952.
`UUGUAGGCAGCGUGUGGCGUCUCAGAGGCCAGAGCGGCACUAGGGGGCUGAUUUUAUUACCAGGUUACCCUGUUCUAGAUCAGGAGGGUCUAUUUCCUGUUGCCGCUCUG`: “RBNS enrichment (R)” 0.4.
`UUUACCAAUAACCAUAUUCUGGCUUAUUCUCCUACCCUCUGCUUCCAUUCAAUCUUCCCCACUAGGGGUUAUCAUUGGCAAUGGACGAGCUGAAGAUUUUGGAGCCUAUC` — result for “RBNS enrichment (R)”: 0.192.
`UGCUUCAUCUUUGGACUAUAUCUCAGGUGUUUACGUGUCAACUAAUGGGAGCUUACUGGGUUAGAAGUCAGGACACUGAGUUUCAAUCCUCACUUAGUAGUCUGUGGCCC` — result for “RBNS enrichment (R)”: 0.343.
`CCACCCCUGGCCCCCUACCCUUAGAUUCUCUGUGUUCCACAAGGAGACAUCAUGAGAUGUCUUCCUUAAGCUGCACCAAGCCAUUGUCCUCCGUUGUUCCCAGGACUCAA` — result for “RBNS enrichment (R)”: 0.584.
For `AAUGCACACCUGCUGCUCACUUCUUGUGAGGCUGCCUUUUGUGAUCAAAUAACAGGAAGUUCUGCUUUAGAGGAGGGCACGAUGACCAUGUGGCAGUCUGCAAGUGGAAU`, “RBNS enrichment (R)” read 0.417.
For `AUUUAUUUACAGAUGGAAGUCUUUGUUUCAUGAAGCUACCAAACUUUAAAAAGAAUGUCACCCUUUUUUUUGUUUGUUAUGGAAACCAGAGAUUGUAAAAUGGAAAAAGA`, “RBNS enrichment (R)” read 0.529.
For `UCAAAUCCGAAGUGCUCGAGUGCUUAGAAACCCCCUCUGGUGCUUGGUUGAACAAGGGAAUCACAAGAAAACGAAAAUGCAAAAACUGAACUUCGGGGGUCGUUCUGUGC`, “RBNS enrichment (R)” read 0.893.
`UUGACCUCUGUCUUGACAGUGCCCUCCACAACUGUGUCCUGUGUGGGAGACUCACCCCACACGCCCUCCCCAGGGCACGUGCUGGUGUUUCCUCACGCUGGUUUCUCUGG` — result for “RBNS enrichment (R)”: 0.171.
`GGAAAAGAAGUUUUCUUACAAACCAAAGGGCUUUAGGGAGGACGUUAGGGUUAUAGCUGUGGACUGAAGAGUUGCCUUCCAAAGGAAAGAGGACCAAAUUGCUUACAUGA`: “RBNS enrichment (R)” 0.745.
Under “RBNS enrichment (R)”, `UCCUUGUAGUCCAGGUGAUCAGUGGCCAACAACUCCCCAAAGUGGAUAAAACCAAAGAGACAACCGUUGUGGAUCCACUGGUGAAAGUAGAGCUCUAUGGUGUUCCUGAA` is recorded as 0.454.

Series 2
Target: Centromere-binding protein 1, full length, His-tagged (CBF1, Saccharomyces cerevisiae, UniProt P17106, residues 1-351)
Chain of UniProt P17106 (whole entry, looked up): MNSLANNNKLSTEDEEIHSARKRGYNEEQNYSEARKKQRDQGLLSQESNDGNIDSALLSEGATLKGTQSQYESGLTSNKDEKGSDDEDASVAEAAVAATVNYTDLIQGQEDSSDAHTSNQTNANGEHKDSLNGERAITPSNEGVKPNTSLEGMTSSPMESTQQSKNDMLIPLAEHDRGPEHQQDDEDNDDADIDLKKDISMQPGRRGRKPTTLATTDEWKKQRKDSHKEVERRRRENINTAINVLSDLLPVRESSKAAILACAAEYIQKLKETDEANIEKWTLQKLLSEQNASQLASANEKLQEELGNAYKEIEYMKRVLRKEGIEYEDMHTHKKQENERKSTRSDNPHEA
Technique: competition protein-binding microarray
Form: double-stranded DNA, one strand shown
Sample: in vitro
Tested at: 2 µM
Setting: whole 60-bp probe, lowest competitor level
Added: Pho4 competitor, 0.05 µM
Reading: higher = stronger binding
Constant ends, left off below: … GTCTTGATTCGCTTGACGCTGCTG
For `CGTCCTAGTGATTGTTCCGTGGGTGCCATGAGGAAG`, the fluorescence intensity was 87.8 a.u.
The fluorescence intensity of `TAGTCTTTGTCTAGCTTCGTGCTTTTTAGCAAAAGC` is reported as 59.6 a.u.
`AAAAGAGGTACGTTGCGCGTGTTTCTAGGGAGAAGA` has a fluorescence intensity of 70.9 a.u.
With `CACAAGACGATTTTGCACGTGGTGAGTTTTGTAAGC` the fluorescence intensity was 1900 a.u.
`GAAAATGCTAATGCCCATGTGCGACTCATTCCGTTA` gave a fluorescence intensity of 75 a.u.
For `CATACCCAACCTTGCTTCGTGGGTGAAGATATTTGT`, the fluorescence intensity was 76 a.u.
With `CTTTCCTTGGTCGCCGGCGTGACGGATTCGCTGGCG` the fluorescence intensity was 91.9 a.u.
For `GTACTTGTTTCCGTTTCCGTGCCAGGCTAGATCCAT`, the fluorescence intensity was 62.9 a.u.
With `GTCTTGTCTCATTGTTGGGTGGGTGTCCCCACTTCA` the fluorescence intensity was 97.7 a.u.
`ATCCAAAAGTTGAACGACATGACAAGGTAGTTCCGA` has a fluorescence intensity of 67.4 a.u.
The fluorescence intensity of `AAATTACTAAGTTGGTTAGTGGGTGACGCCGTATGA` is reported as 62.8 a.u.
The fluorescence intensity of `ATCCGGAGCCCTCCACGCCTGCTAGCTTTGTGTTGG` is reported as 53.5 a.u.
With `GTCTTGTCTCATTGTAGCGTGGGTGTCCCCACTTCA` the fluorescence intensity was 70.5 a.u.
`GATTGTGGAAAGAAGCATGTGGTTTTCAAAAATTGG` gave a fluorescence intensity of 183 a.u.
With `GTATGGCGCGGAAGAAACCGAGAGAGCTGCAAAATT` the fluorescence intensity was 56.9 a.u.
`GTCTTGTCTCATTATCACGTGTTTTTCCCCACTTCA` has a fluorescence intensity of 4190 a.u.

Series 3
Target: RING finger protein unkempt homolog, zinc fingers 1-6, GST-SBP tag (UNK, Homo sapiens, UniProt Q9C0B0, residues 30-357)
Technique: RNA Bind-n-Seq
Form: RNA
Sample: in vitro
Tested at: not given
Setting: RNA with constant flanks, human-mouse chimeric sites, ends assumed
Reference: input RNA pool
Reading: higher = stronger binding
Target sequence (chain): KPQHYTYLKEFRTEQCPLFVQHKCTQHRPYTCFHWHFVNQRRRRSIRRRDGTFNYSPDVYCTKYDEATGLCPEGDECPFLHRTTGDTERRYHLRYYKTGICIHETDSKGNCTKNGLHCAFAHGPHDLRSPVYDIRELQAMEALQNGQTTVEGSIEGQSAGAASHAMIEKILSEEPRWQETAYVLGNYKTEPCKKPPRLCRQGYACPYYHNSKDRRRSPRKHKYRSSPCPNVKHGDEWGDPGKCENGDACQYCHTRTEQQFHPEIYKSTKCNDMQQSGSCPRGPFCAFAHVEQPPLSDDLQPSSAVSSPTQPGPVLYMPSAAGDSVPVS
`GGGAGUUCUACAGUCCGACGAUCUCUUUAAAAAAAAAAUUACCUUUUCUGACAGUGCUUUAUGGAGUAAAGAUCCACGUUCACACUAGAAGAGCAAAGGCUUUGCACGGAGCUCAAACAUCUGAUGAAGAAAGAUUUCUGAGACAACAGAGGAUUGAGCAUCA` gave a bound/input enrichment of 0.125 ratio.
With `GGGAGUUCUACAGUCCGACGAUCGGGGAGAAACCUUACGAAUGCGUUCAGUGUGGGAAAUCCUACAGUCAGAGCUCAAACCUUUUUAGACAUCAGAGACGACACAAUGCAGAAAAACUUUUGAAUGUUGUGAAGGUUUAAGAACAACAGAGGAUUGAGCAUCA` the bound/input enrichment was 0.116 ratio.
`GGGAGUUCUACAGUCCGACGAUCGGAUUCCGCUUCCGGUUCCGUUGGGCUCGGUUCUCUCCUGAGCUACGUGUCUCUACGCUCUCAAUCCGCCAUCCAACAAACAUGGAUCAGGUAAUGCAGUUUGUGGAUGAGCCAAGUCAGCAACAGAGGAUUGAGCAUCA` gave a bound/input enrichment of 0.0191 ratio.
With `GGGAGUUCUACAGUCCGACGAUCCUGGCACUCUAUCAGAUAUAUUAAUUUUUUAAUGUAGAUGUAAUUUUAAAAAUGAAUGGCUACUUUACACGUUUAACUAGGGUUUUACUAUAUAUGUGUGUGUAUAUAUAUAUAUAUAUACAACAGAGGAUUGAGCAUCA` the bound/input enrichment was 26.2 ratio.

Further values, each from its own experiment
With `PhoQ, residues 284 288 289 292 302 303 ALAMYF` the fold induction was 1.76 (PhoP, residues 12 14 15 18 19 VGHWL (Escherichia coli, UniProt P23836); Sort-seq, refers to: YFP reporter; E. coli; PhoQ-PhoP variant library, added: 10 µM Mg2+; reference: high Mg2+ state, higher = stronger signaling).

Excerpt of the above (series 2):
With `GTATGGCGCGGAAGAAACCGAGAGAGCTGCAAAATT` the fluorescence intensity was 56.9 a.u.
With `GTCTTGTCTCATTGTTGGGTGGGTGTCCCCACTTCA` the fluorescence intensity was 97.7 a.u.
`GATTGTGGAAAGAAGCATGTGGTTTTCAAAAATTGG` gave a fluorescence intensity of 183 a.u.
